# Experimental data of several laboratories.
# Each line is one published result; not all experiments were run side by side. Numbers after ± are the reported error.
# KCNT1: Potassium channel subfamily T member 1 (KCNT1, Homo sapiens, UniProt Q5JUK3)
# UniProt Q5JUK3, sequence (whole entry, looked up): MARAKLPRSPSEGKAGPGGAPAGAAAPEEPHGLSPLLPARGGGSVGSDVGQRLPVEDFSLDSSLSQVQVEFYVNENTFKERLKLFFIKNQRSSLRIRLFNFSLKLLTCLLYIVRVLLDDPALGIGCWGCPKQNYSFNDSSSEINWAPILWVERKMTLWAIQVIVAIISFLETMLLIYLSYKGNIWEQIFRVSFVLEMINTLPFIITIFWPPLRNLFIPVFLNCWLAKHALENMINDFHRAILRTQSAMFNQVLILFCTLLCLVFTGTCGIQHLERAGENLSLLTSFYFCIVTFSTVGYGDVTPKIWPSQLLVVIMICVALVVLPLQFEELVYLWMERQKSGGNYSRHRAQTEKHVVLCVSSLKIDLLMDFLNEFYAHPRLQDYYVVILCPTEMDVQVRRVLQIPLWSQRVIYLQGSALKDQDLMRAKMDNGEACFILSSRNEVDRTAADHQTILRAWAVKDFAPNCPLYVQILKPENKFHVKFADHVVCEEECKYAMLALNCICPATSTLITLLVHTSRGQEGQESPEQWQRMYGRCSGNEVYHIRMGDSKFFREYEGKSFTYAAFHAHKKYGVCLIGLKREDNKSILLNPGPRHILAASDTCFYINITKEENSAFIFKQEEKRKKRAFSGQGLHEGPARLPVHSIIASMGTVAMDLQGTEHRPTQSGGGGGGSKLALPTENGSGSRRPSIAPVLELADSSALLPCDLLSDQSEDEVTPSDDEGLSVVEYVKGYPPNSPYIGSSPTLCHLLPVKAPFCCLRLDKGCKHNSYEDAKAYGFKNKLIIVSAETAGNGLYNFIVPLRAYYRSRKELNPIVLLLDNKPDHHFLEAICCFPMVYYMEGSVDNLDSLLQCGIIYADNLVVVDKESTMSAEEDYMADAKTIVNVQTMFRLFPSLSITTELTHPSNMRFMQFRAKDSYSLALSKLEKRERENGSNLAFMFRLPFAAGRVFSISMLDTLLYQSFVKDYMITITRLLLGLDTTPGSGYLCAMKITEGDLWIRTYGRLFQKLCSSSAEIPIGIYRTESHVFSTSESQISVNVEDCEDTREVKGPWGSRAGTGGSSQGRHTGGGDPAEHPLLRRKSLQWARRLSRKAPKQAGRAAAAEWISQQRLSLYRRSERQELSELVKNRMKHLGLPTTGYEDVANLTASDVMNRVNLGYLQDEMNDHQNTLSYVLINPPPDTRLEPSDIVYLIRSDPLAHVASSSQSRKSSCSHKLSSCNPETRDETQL
# CFTR del508-508: Cystic fibrosis transmembrane conductance regulator (CFTR, Homo sapiens, UniProt P13569, del508-508)
# YAP1 WW2 domain: Transcriptional coactivator YAP1, WW2 domain (YAP1, Homo sapiens, UniProt P46937)
# ERAP1 V737R: Endoplasmic reticulum aminopeptidase 1 (ERAP1, Homo sapiens, UniProt Q9NZ08, V737R)
# UniProt Q9NZ08, sequence (whole entry, unmodified, looked up): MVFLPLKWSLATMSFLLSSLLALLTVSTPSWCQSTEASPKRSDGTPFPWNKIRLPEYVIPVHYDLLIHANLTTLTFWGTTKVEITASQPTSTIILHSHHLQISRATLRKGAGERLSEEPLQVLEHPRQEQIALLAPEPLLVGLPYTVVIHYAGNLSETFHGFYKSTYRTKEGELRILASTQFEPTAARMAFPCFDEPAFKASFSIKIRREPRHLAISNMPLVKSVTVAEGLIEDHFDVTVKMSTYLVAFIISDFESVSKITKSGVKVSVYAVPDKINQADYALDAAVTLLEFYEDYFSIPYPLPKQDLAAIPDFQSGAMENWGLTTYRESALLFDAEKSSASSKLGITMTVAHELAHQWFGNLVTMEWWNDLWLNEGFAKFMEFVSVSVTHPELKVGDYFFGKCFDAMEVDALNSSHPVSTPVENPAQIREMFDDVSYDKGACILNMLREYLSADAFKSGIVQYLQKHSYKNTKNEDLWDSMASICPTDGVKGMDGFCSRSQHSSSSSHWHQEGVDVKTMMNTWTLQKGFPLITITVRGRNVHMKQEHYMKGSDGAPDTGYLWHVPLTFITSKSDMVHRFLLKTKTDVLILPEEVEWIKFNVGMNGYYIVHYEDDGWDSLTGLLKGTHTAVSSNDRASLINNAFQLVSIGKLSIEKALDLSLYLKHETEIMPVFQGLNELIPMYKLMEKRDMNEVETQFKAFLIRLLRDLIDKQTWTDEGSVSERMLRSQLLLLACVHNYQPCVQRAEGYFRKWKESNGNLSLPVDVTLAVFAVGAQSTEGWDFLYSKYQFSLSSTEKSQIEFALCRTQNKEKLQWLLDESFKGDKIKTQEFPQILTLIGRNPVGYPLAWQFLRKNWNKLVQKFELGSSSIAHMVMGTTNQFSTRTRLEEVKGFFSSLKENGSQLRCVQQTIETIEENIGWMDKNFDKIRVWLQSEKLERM
# UniProt Q00194, sequence (whole entry, looked up): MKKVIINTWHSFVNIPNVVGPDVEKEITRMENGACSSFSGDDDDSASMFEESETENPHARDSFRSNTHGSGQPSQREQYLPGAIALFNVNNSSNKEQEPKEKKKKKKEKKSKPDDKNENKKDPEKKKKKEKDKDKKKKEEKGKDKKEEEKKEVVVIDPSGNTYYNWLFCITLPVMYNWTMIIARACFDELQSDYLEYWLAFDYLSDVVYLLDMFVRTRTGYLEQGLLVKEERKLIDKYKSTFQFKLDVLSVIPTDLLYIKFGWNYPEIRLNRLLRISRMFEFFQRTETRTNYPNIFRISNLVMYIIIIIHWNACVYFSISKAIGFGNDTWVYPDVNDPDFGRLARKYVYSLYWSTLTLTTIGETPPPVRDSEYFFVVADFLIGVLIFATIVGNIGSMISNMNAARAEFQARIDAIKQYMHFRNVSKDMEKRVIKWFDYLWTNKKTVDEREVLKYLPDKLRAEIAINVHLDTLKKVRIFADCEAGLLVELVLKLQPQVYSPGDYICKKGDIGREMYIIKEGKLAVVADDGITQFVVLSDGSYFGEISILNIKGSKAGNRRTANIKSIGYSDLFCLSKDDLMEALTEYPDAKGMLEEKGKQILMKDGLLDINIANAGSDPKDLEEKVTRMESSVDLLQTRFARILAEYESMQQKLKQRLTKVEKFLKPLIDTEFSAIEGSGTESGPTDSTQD
# UniProt Q9UI95, sequence (whole entry, unmodified, looked up): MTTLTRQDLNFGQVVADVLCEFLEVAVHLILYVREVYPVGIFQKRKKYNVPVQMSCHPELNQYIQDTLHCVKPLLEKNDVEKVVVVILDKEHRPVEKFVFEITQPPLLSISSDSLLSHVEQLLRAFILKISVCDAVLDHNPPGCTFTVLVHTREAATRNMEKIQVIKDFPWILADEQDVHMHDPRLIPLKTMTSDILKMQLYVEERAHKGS
# UniProt Q01650, sequence (whole entry, looked up): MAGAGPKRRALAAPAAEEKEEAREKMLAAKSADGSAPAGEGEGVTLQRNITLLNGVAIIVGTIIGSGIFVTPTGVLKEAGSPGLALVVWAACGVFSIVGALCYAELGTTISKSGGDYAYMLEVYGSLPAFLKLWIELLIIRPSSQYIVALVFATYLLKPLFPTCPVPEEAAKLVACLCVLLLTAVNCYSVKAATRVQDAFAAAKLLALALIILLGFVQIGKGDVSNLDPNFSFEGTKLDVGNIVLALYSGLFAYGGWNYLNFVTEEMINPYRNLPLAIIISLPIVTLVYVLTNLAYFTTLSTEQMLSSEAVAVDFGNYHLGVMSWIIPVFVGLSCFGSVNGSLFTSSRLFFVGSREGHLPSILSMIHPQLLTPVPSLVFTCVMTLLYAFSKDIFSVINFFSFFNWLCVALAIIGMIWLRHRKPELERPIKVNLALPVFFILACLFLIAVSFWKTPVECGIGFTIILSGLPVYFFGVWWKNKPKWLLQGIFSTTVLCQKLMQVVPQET
# UniProt P50225, sequence (whole entry, looked up): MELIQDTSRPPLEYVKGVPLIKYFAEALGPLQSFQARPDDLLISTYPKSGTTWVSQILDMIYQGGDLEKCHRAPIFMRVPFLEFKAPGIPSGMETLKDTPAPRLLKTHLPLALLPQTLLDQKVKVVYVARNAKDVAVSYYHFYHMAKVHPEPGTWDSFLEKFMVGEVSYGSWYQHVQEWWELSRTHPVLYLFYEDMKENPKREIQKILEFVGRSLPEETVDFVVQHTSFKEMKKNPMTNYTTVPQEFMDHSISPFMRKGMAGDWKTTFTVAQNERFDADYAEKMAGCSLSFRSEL
# UniProt P03951, sequence (whole entry, looked up): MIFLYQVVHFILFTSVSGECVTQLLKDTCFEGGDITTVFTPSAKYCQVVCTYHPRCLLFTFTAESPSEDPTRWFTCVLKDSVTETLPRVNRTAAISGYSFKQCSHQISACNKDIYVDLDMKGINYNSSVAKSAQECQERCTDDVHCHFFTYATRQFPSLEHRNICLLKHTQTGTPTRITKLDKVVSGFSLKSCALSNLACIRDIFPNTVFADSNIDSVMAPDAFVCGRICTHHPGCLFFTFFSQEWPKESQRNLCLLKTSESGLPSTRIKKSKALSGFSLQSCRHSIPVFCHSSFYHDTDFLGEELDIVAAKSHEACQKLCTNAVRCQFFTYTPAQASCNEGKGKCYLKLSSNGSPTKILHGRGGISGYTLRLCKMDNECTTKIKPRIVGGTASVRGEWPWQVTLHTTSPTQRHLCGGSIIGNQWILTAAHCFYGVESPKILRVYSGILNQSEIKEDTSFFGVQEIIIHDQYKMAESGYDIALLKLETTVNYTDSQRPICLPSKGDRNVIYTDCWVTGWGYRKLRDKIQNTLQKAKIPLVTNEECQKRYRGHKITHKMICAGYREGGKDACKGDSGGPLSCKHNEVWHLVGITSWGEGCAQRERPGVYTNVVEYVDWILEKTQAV
Substance,target,test,test system,conditions,scale,endpoint,value
"LRHYLNLLTRORY (acetyl-Leu28, acetyl-Leu31)",neuropeptide Y receptor Y2 human,agonist,"peptide, hY2-CHO","100 nM, 30 min, 37 °C",relative to: no unlabeled agonist,surface receptor depletion,67.8 ± 2.9%
Oc1ccc(/C=C/c2ccccc2)cc1O,"Transthyretin, fibrils (TTR, Homo sapiens, UniProt P02766)","binding, fluorescence emission",,"1 µM, pH 3.0, together with: 5 µM fibrils (monomer)",relative to: free compound,fluorescence increase,1.7 fold
Oc1ccccc1,"Sulfotransferase 1A1 (SULT1A1, Homo sapiens, UniProt P50225)","sulfation, inhibitor",,"pH 6.2, 37 °C, competitive versus pNPS, dead-end complex, together with: PAP 0.1 mM",,Ki,1500 ± 300 µM
GSRPQRLLWQTAVRHITEQRFIHGH,"Calmodulin-1 (Calm1, Rattus norvegicus, UniProt P0DP29, D21A/D57A)","Ca2+ dissociation, stopped-flow quin-2 fluorescence",peptide,"2 µM, pH 7.4, 22 °C, together with: Ca2+-calmodulin complex",,koff1,4.18 ± 1.04 s⁻¹
O=S(=O)(c1cccc(Cl)c1)N1CC(c2nc(-c3ccsc3)no2)C1,KCNT1,"Tl+ flux, inhibitor",HEK293 expressing KCNT1,30 µM,,activity class,inactive
COc1ccc(Cl)cc1Nc1nc2c(s1)CCCCc1nc(NC(=O)C(C)C)sc1-2,CFTR del508-508,"iodide influx, corrector, YFP halide quenching",FRT cells expressing YFP-H148Q/I152L,"16 to 20 h, 37 °C, genistein 50 µM, together with: forskolin 20 µM",,Vmax,717 µM/s
CC[C@H](C)[C@H](NC(=O)[C@H](CC(C)C)NC(=O)[C@H](Cc1ccccc1)NC(=O)[C@@H](NC(=O)[C@H](C)N)[C@@H](C)O)C(=O)N[C@@H](CCC(N)=O)C(=O)N[C@@H](CCC(=O)O)C(=O)N[C@@H](Cc1ccc(O)cc1)C(=O)N[C@@H](Cc1ccccc1)C(=O)N[C@@H](CCCNC(=N)N)C(=O)N[C@@H](CCCCN)C(=O)N[C@@H](Cc1ccccc1)C(=O)N[C@@H](CCCCN)C(=O)N[C@@H](CCCCN)C(=O)N[C@@H](CCCNC(=N)N)C(=O)N[C@@H](CCCCN)C(=O)N[C@@H](CCC(=O)O)C(=O)N[C@@H](CCC(N)=O)C(=O)NCC(=O)N[C@@H](CC(C)C)C(=O)N[C@H](C(=O)NCC(=O)N[C@@H](CCCCN)C(=O)N1CCC[C@H]1C(=O)N[C@@H](CO)C(=O)N[C@@H](CCC(N)=O)C(=O)O)C(C)C,"rat calmodulin 1-80, sites I and II",fluorescence titration,,"6 to 8 µM, pH 7.4, 22 °C",,"apparent calcium binding free energy, ΔG1",-6.66 ± 0.22 kcal/mol
Nc1ccc(-c2nc([C@H]3CCc4cc(-c5cc(Cl)ccc5-n5cnnn5)cc(=O)n43)c(F)[nH]2)c(F)n1,"Coagulation factor XI (F11, Homo sapiens, UniProt P03951)",,"human, blood","oral, 80 mg once daily, fed, day 14, 24 h",,FXI activity inhibition,61 ± 11.1%
CC(C)C[C@H](NC(=O)[C@H](C)NC(=O)[C@@H](N)[C@@H](C)O)C(=O)N1CCC[C@H]1C(=O)N1CCC[C@H]1C(=O)N1CCC[C@H]1C(=O)N1CCC[C@H]1C(=O)N[C@@H](Cc1ccc(O)cc1)C(=O)N[C@@H](CCCNC(=N)N)C(=O)N[C@@H](Cc1c[nH]cn1)C(=O)N[C@@H](CCCNC(=N)N)C(=O)N[C@@H](CC(N)=O)C(=O)O,YAP1 WW2 domain,"binding, ITC",,"pH 7.0, 25 °C, WW2 domain",,ΔG,-5.76 ± 0.16 kcal/mol
CCOc1ccccc1S(=O)(=O)N1CC(c2nc(-c3ccc(F)cc3)c[nH]2)C1,KCNT1,"Tl+ flux, activator",HEK293 expressing KCNT1,30 µM,relative to: loxapine maximum response,efficacy,31%
N[C@@H](Cc1c[nH]cn1)C(=O)O,"Histidine--tRNA ligase, cytoplasmic (HARS1, Homo sapiens, UniProt P12081, Y330C)",substrate,,"pH 7.5, together with: 10 mM ATP, 5 µM tRNAHis",,Km,203 ± 83.2 µM
O=c1c(-c2ccc(O)cc2)coc2cc(O)cc(O)c12,"Cyclic nucleotide-gated channel alpha-1 (CNGA1, Bos taurus, UniProt Q00194)","ion current, inside-out patch clamp",Xenopus oocytes,"100 µM, closed channels, together with: erbstatin 100 µM",,inhibition,~80%
Clc1ccc(SSc2ccc(Cl)cc2)cc1,tubulin,"colchicine binding, [3H]colchicine binding",,"5 µM, 10 min, 37 °C, together with: [3H]colchicine 5.0 µM",,inhibition,9.8 ± 2%
Cc1cc(=O)oc2cc(NC(=O)[C@@H](N)CC(C)C)ccc12,ERAP1 V737R,"hydrolysis of compound, substrate",,"varied from 0 µM, 5 min, pH 8.0, 27 °C, mutant V737R, no peptide activator",,Vmax,90 ± 1 nmol/min/µg
COc1cccc(OC)c1C(=O)NCCNc1nc2cc(C)cc(C)c2cc1C#N,CFTR del508-508,"CFTR correction, corrector, iodide influx rate",FRT expressing YFP-H148Q/I152L,"up to 25 µM, 16-20 h, 37 °C, together with: forskolin 20 µM, genistein 50 µM",,Vmax,111 µM/s
CC[C@H](C)[C@H](NC(=O)[C@H](CC(C)C)NC(=O)[C@H](CC(C)C)NC(=O)CNC(=O)[C@H](Cc1ccc(O)cc1)NC(=O)[C@H](CCCNC(=N)N)NC(=O)[C@H](CO)NC(C)=O)C(=O)N[C@@H](CCCCN)C(=O)N[C@@H](C)C(=O)N[C@@H](Cc1ccccc1)C(=O)N[C@@H](CO)C(=O)N[C@@H](CCSC)C(=O)N[C@H](C(=O)N[C@@H](C)C(=O)N[C@@H](C)C(=O)N[C@@H](CCC(=O)O)C(=O)N[C@H](C(=O)N[C@@H](C)C(=O)N[C@@H](CCCNC(=N)N)C(=O)N[C@@H](CCCNC(=N)N)C(=O)N[C@H](C(=O)N[C@@H](CCCNC(=N)N)C(=O)N[C@@H](CCC(=O)O)C(=O)N[C@@H](Cc1ccccc1)C(=O)N[C@@H](CCCNC(=N)N)C(N)=O)[C@@H](C)O)[C@@H](C)O)[C@@H](C)O,calmodulin 1-148 sites III and IV,"calcium binding, Tyr fluorescence titration",,"12 µM, pH 7.4, 22 °C, together with: 6 µM calmodulin",,apparent ΔG2,-16.1 ± 0.23 kcal/mol
CCCCCCCCCCCCCCCCOc1ccc(/C=C/C(O)=C/C(=O)/C=C/c2ccc(O)c(OC)c2)cc1OC,"Protein kinase C epsilon type, C1B domain (PRKCE, Homo sapiens, UniProt Q02156)",,buffer,"5×1 µM, 1 h, 25 °C, protein excess",,emission maximum,560 nm
CC(C)[C@H](NC(=O)OCc1ccccc1)C(=O)N[C@H](C=O)Cc1ccccc1,integrin alphaM beta2 (human),"ligand binding, inhibitor, flow cytometry",human neutrophils,"concentration not given, 1 h, 37 °C, integrin clustering inhibitor, together with: Alexa 488-labelled plasminogen","relative to: no inhibitor, lower means less binding",bound plasminogen fluorescence,312 ± 35 MFI
CC(C)[C@H](NC(=O)[C@@H](N)[C@@H](C)O)C(=O)N[C@@H](C)C(=O)N1CCC[C@H]1C(=O)N1CCC[C@H]1C(=O)N1CCC[C@H]1C(=O)N1CCC[C@H]1C(=O)N[C@@H](Cc1ccc(O)cc1)C(=O)N[C@@H](CCCNC(=N)N)C(=O)N[C@@H](Cc1c[nH]cn1)C(=O)N[C@@H](CCCNC(=N)N)C(=O)N[C@@H](CC(N)=O)C(=O)O,"Transcriptional coactivator YAP1, WW1 domain (YAP1, Homo sapiens, UniProt P46937)","binding, ITC",,"pH 7.0, 25 °C, WW1 domain",,TΔS,-10.1 ± 0.78 kcal/mol
Cc1cccnc1Nc1nc2c(s1)CCCc1nc(NC(=O)C(C)(C)C)sc1-2,CFTR del508-508,"iodide influx, corrector, YFP halide quenching",FRT cells expressing YFP-H148Q/I152L,"16 to 20 h, 37 °C, genistein 50 µM, together with: forskolin 20 µM",,Vmax,509 µM/s
CCc1c(Cl)c(O)c(Cl)c(O)c1C(=O)O[C@H]1[C@H](O)[C@H](OC)[C@H](OC/C2=C\C=C\C[C@H](O)/C(C)=C/[C@H](CC)[C@@H](O[C@@H]3OC(C)(C)[C@@H](OC(=O)C(C)C)[C@H](O)[C@@H]3O)/C(C)=C/C(C)=C/C[C@@H]([C@@H](C)O)OC2=O)O[C@@H]1C,"Organic solute transporter subunit alpha, with OSTβ (SLC51A, Homo sapiens, UniProt Q86UW1)","DHEAS uptake, inhibitor",Flp-In-293 expressing OSTα/β,"100 µM, 30 s, preincubation and co-incubation, together with: DHEAS 20 µM",,inhibition,> 80%
O=S(=O)(c1ccc(Cl)cc1)N1CC(c2nc(-c3ccsc3)no2)C1,KCNT1,"Tl+ flux, inhibitor",HEK293 expressing KCNT1,30 µM,,activity class,inactive
N[C@@H](Cc1cn(Cc2ccccc2)cn1)C(=O)O,"Large neutral amino acids transporter small subunit 1 (SLC7A5, Homo sapiens, UniProt Q01650)",substrate,HEK293 expressing human LAT1,"200 µM, 3 min, together with: [3H]-gabapentin preloaded",relative to: L-phenylalanine,relative efflux,81%
CCN(CCO)CCCC(C)Nc1ccnc2cc(Cl)ccc12 (centres unmarked),"Prosaposin, Saposin B (PSAP, Homo sapiens, UniProt P07602)",tyrosine fluorescence quenching,,"pH 5.5, 25 °C, together with: saposin B 40 µM",,log Ka,3.81
O=S(=O)(Sc1ccc(Cl)cc1)c1ccc(Cl)cc1,tubulin,colchicine binding,,"5 µM, 10 min, 37 °C, together with: 5.0 µM [3H]colchicine",,inhibition,0%
IINFEKE,ERAP1 V737R,substrate,peptide,"pH 8.0, 27 °C, mutant V737R, together with: L-AMC, peptide activator 100 µM",,Hill coefficient,1.4
Cc1ccc(-c2csc3ncn(Cc4ccncc4)c(=O)c23)o1,"MAD2L2, with REV3L peptide (Homo sapiens, UniProt Q9UI95, R124A)",,,concentration not given,,activity,inactive
IINFEKL,"Endoplasmic reticulum aminopeptidase 1 (ERAP1, Homo sapiens, UniProt Q9NZ08, L733R)",substrate,peptide,"pH 8.0, 27 °C, mutant L733R, together with: L-AMC, peptide activator 100 µM",,Hill coefficient,1
CC(C)C[C@H](NC(=O)[C@@H](NC(=O)[C@@H](N)[C@@H](C)O)C(C)C)C(=O)N1CCC[C@H]1C(=O)N1CCC[C@H]1C(=O)N1CCC[C@H]1C(=O)N[C@@H](C)C(=O)N[C@@H](Cc1ccc(O)cc1)C(=O)N[C@@H](CCCNC(=N)N)C(=O)N[C@@H](Cc1c[nH]cn1)C(=O)N[C@@H](CCCNC(=N)N)C(=O)N[C@@H](CC(N)=O)C(=O)O,YAP1 WW2 domain,"binding, ITC",,"pH 7.0, 25 °C, WW2 domain",,TΔS,-4.74 ± 0.4 kcal/mol
C=C[C@H](C)C[C@@H]1NC(=O)[C@H]([C@H](O)C(C)C)N(C)C(=O)[C@H](C)N(C)C(=O)[C@@H]([C@@H](C)CC)NC(=O)[C@@H]([C@H](O)C(C)C)NC(=O)[C@H]2CCCCN2C(=O)[C@H](C)N(C)C1=O,"Elongation factor 1-alpha 1, ternary complex on ribosome (EEF1A1, Homo sapiens, UniProt P68104)","inhibitor, smFRET washout",,"10 µM, 30 s preincubation, 25 °C",,residence time,1.37 min
COc1cccc(S(=O)(=O)N2CC(c3nc(-c4ccsc4)no3)C2)c1,KCNT1,"Tl+ flux, inhibitor",HEK293 expressing KCNT1,30 µM,,activity class,inactive
CCCCc1nc(Cl)c(CO)n1Cc1ccc(-c2ccccc2-c2nn[nH]n2)cc1,"Type-1 angiotensin II receptor (AGTR1, Homo sapiens, UniProt P30556)","antagonist, PathHunter β-arrestin",CHO cells transfected with receptor,"10 µM, together with: post-immune serum 1:100",relative to: buffer baseline,β-arrestin recruitment,158 ± 15%

# A few entries again:
Substance,target,test,test system,conditions,scale,endpoint,value
Cc1ccc(-c2csc3ncn(Cc4ccncc4)c(=O)c23)o1,"MAD2L2, with REV3L peptide (Homo sapiens, UniProt Q9UI95, R124A)",,,concentration not given,,activity,inactive
O=S(=O)(Sc1ccc(Cl)cc1)c1ccc(Cl)cc1,tubulin,colchicine binding,,"5 µM, 10 min, 37 °C, together with: 5.0 µM [3H]colchicine",,inhibition,0%
